# Experimental data of several laboratories.
# Every numbered part comes from another study and shows a few of its results, in no order.
# Sequence of UniProt Q8IYT8 (whole entry, looked up): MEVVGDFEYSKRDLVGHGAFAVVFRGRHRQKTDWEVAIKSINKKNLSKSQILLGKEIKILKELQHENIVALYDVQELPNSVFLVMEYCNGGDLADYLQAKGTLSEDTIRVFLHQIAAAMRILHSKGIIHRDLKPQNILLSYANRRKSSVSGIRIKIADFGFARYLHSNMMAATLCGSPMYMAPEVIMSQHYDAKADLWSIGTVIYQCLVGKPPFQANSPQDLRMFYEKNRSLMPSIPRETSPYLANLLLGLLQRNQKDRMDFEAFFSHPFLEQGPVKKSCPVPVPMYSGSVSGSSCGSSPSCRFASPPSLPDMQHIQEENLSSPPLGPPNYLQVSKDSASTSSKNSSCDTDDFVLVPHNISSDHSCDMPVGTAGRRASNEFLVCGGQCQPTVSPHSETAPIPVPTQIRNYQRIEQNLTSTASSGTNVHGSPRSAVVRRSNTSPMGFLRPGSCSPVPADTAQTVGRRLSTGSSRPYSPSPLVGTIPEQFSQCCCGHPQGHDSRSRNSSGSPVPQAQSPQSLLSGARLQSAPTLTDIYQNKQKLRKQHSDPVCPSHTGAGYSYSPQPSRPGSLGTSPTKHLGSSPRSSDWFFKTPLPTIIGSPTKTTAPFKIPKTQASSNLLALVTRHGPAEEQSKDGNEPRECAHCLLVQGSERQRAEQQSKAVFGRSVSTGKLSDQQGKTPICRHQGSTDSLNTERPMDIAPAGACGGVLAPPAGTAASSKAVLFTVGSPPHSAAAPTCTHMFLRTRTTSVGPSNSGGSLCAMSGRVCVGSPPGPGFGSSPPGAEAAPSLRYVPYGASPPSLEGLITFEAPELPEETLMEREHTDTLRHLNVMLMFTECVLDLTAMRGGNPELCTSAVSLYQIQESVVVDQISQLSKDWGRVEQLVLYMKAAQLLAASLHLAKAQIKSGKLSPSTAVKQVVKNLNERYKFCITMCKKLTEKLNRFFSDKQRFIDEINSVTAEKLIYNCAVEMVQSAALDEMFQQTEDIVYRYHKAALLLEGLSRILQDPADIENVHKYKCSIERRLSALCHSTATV
# Sequence of UniProt Q9UHD2 (whole entry, looked up): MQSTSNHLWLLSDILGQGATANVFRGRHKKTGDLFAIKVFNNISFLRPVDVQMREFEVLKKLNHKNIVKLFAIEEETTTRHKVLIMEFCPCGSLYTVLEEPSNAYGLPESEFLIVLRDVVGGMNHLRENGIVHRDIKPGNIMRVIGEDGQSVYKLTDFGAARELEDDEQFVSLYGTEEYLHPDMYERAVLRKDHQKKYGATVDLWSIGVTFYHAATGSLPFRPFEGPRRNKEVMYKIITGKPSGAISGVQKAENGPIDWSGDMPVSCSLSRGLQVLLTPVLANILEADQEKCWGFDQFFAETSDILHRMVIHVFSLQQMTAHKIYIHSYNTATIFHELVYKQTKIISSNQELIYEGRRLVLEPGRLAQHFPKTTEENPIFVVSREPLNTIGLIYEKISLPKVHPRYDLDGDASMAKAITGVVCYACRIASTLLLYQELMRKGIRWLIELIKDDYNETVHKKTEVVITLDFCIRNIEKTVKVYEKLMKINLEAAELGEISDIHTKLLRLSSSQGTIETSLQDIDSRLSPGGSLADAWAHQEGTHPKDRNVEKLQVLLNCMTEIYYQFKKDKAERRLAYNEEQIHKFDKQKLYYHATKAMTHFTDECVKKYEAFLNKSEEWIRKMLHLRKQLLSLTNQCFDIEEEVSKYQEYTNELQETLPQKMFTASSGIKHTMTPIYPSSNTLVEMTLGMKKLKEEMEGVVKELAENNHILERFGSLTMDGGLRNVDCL
# Sequence of UniProt P52333 (whole entry, looked up): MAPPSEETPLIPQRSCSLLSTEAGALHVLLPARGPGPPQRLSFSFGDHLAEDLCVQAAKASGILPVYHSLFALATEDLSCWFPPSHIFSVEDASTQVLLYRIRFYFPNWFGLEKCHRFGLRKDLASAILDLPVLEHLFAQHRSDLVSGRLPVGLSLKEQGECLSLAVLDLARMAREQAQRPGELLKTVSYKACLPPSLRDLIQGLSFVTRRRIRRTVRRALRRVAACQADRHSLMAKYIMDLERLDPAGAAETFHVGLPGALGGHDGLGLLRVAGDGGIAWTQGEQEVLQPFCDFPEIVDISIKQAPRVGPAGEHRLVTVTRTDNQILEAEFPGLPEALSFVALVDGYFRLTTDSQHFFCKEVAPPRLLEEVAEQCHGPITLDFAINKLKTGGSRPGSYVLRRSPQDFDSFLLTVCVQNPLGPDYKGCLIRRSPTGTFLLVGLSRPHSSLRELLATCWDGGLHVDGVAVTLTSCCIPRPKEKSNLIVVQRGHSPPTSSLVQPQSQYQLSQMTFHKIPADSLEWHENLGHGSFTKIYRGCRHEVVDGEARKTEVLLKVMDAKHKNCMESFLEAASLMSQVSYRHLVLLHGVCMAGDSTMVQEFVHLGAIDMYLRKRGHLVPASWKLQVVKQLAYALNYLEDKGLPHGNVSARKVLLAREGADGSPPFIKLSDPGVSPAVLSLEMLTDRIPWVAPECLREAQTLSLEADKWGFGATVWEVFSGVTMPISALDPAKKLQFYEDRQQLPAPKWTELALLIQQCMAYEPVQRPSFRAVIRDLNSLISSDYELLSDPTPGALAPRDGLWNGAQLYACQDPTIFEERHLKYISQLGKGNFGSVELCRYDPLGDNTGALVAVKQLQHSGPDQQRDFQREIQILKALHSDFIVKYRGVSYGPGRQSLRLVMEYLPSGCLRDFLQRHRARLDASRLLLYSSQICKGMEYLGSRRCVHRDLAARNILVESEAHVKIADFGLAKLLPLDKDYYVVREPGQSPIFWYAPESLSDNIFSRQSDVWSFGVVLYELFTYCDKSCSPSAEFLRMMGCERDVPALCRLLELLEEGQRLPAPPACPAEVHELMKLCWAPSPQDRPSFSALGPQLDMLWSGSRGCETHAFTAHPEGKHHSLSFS
# Sequence of UniProt Q99558 (whole entry, looked up): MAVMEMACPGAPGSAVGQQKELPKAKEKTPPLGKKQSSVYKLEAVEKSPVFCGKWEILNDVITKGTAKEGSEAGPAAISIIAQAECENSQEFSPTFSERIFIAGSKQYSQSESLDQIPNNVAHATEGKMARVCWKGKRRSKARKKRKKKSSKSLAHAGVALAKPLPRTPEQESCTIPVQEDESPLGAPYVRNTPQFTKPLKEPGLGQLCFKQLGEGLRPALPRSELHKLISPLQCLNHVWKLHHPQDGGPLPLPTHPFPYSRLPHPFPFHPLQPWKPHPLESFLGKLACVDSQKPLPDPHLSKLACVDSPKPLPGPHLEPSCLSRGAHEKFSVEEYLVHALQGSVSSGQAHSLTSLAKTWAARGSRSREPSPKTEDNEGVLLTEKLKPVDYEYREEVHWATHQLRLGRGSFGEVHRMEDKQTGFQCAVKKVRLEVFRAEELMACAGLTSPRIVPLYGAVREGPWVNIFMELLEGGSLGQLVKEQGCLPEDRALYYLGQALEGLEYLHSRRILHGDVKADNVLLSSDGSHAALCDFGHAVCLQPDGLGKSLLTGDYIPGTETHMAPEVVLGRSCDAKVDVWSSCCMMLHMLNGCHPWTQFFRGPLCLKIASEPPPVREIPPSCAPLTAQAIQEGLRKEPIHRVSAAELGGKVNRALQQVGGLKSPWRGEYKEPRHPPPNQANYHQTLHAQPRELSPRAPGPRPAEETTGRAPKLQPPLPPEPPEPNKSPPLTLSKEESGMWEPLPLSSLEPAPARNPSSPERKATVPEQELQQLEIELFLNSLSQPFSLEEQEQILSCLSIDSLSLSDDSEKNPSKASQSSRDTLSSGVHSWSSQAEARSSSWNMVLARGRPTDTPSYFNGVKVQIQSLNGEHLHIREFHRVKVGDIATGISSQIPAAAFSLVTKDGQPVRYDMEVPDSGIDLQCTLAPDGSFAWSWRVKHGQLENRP
# Sequence of UniProt P30291 (whole entry, looked up): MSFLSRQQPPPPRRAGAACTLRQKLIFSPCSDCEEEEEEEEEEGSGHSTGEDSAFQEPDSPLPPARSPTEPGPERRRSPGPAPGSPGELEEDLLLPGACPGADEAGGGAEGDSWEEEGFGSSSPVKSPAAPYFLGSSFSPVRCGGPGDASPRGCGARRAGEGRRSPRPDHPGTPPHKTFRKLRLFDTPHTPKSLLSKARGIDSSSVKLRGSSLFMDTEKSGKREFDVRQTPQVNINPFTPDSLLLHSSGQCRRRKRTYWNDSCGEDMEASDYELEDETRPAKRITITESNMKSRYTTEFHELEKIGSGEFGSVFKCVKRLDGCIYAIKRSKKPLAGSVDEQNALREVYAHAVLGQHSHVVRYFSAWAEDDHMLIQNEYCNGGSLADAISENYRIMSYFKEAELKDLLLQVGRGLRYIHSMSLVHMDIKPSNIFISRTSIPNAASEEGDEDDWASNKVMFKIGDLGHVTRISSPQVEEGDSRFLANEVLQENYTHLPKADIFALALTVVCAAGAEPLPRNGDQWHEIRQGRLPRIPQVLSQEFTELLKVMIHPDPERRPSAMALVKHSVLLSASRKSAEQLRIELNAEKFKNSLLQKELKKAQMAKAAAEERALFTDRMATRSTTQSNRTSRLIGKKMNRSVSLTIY

# Set 1
# Structure (SMILES): O=C(NC[C@@H]1[C@H]2CN(C(=O)OCc3cc(C(F)(F)F)cc(C(F)(F)F)c3)C[C@@H]12)c1ccc2[nH]nnc2c1
# Effect on: cell-free assay
# Method: competition with immobilised ligand
# Tested at: 1 µM
target,remaining binding [%]
"Eukaryotic translation initiation factor 2-alpha kinase 1 (EIF2AK1, Homo sapiens, UniProt Q9BQI3)",91
"Serine/threonine-protein kinase BRSK2 (BRSK2, Homo sapiens, UniProt Q8IWQ3)",96
"Serine/threonine-protein kinase ULK2 (ULK2, Homo sapiens, UniProt Q8IYT8)",97
"Serine/threonine-protein kinase MAK (MAK, Homo sapiens, UniProt P20794)",100

# Set 2
# Target: Diamine acetyltransferase 1 (Homo sapiens, UniProt P21673)
# Action: inhibitor
# Tested at: 10 µM
# Relative to: control
# Target sequence (P21673 1-171): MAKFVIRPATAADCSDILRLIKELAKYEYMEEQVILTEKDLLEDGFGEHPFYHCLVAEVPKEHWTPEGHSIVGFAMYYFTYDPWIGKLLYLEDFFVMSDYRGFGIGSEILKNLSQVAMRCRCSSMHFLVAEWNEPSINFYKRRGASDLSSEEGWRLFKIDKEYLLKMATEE
SMILES,remaining activity
NCCC(=O)O,96.8%
O=C(O)c1ccc(O)cc1O,89.5%
O=C1C[C@@H](c2ccccc2)Oc2cc(O)cc(O)c21,92.6%
COc1cc(O)c2c(c1)C(=O)c1cc(C)cc(O[C@@H]3O[C@H](CO)[C@@H](O)[C@H](O)[C@H]3O)c1C2=O,93.6%

# Set 3
# Target: Calcium/calmodulin-dependent protein kinase type II subunit alpha (CAMK2A, Homo sapiens, UniProt Q9UQM7)
# Sequence of UniProt Q9UQM7 (whole entry, looked up): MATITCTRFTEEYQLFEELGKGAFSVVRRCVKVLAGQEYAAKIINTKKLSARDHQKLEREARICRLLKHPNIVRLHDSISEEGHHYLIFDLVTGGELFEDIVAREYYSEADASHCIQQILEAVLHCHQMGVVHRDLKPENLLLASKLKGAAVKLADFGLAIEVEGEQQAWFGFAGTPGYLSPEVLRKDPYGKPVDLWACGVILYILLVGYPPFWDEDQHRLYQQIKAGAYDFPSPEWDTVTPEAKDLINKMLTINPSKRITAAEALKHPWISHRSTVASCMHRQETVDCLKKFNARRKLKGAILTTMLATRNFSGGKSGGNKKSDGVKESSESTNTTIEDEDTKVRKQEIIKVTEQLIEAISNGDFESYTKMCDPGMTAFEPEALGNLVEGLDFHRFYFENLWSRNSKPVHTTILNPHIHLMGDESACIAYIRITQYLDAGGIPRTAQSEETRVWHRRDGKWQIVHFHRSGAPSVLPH
# Effect on: enzyme activity
# Action: inhibitor
# Tested at: 10 µM
Compound,inhibition
CN[C@@H](C)[C@H]1[C@H](O)C[C@@]2(C)[C@@H]3CC[C@H]4C(C)(C)[C@@H](NC)CC[C@@]45C[C@@]35CC[C@]12C,26%
C[C@@H]1O[C@@H](Oc2cc(O)c3c(=O)c(O)c(-c4ccc(O)c(O)c4)oc3c2)[C@H](O)[C@H](O)[C@H]1O,-8%
NCCS(=O)(=O)O,41%
O=C1C(O)=C([C@H]2CC[C@H](c3ccc(Cl)cc3)CC2)C(=O)c2ccccc21,-14%

# Set 4
# Structure (SMILES): CC(C)n1cnc(-c2ccc(F)cc2)c1-c1ncc(C(=O)Nc2ccc(N3CCN(C)CC3)cc2)[nH]1
# Method: Phase 2a trial
# Species: idiopathic pulmonary fibrosis patients
item,route,dose,notes,patients with adverse events [%]
chest discomfort,,30 mg once daily,grade 5 maximum intensity,0
oral herpes,oral,60 mg once daily,grade 5 maximum intensity,0
weight increased,,60 mg once daily,grade 5 maximum intensity,0
back pain,,60 mg once daily,grade 5 maximum intensity,0
back pain,,dose not given,"grade 4 maximum intensity, all arms",0
tri-iodothyronine increased,,60 mg once daily,grade 2 maximum intensity,0

# Set 5
# Compound: CC(C)N(CCC(=O)c1ccc2ccccc2c1)Cc1ccccc1
# Effect on: enzyme activity
# Action: inhibitor
# Tested at: 0.5 µM
# Relative to: control
target,remaining activity
"Glycogen synthase kinase-3 beta (GSK3B, Homo sapiens, UniProt P49841)",94.9%
"Activin receptor type-1B (ACVR1B, Homo sapiens, UniProt P36896)",99.5%
"Serine/threonine-protein kinase Nek1 (NEK1, Homo sapiens, UniProt Q96PY6)",81.9%
"Serine/threonine-protein kinase ULK3 (ULK3, Homo sapiens, UniProt Q6PHR2)",95.8%
"Tyrosine-protein kinase JAK3 (JAK3, Homo sapiens, UniProt P52333)",80.9%
"Angiopoietin-1 receptor (TEK, Homo sapiens, UniProt Q02763)",96.3%
"Dual specificity mitogen-activated protein kinase kinase 2 (MAP2K2, Homo sapiens, UniProt P36507)",92.5%
"Mitogen-activated protein kinase kinase kinase 14 (MAP3K14, Homo sapiens, UniProt Q99558)",117%
"Serine/threonine-protein kinase TBK1 (TBK1, Homo sapiens, UniProt Q9UHD2)",92.4%
"Serine/threonine-protein kinase ULK2 (ULK2, Homo sapiens, UniProt Q8IYT8)",113%
"Casein kinase I isoform gamma-3 (CSNK1G3, Homo sapiens, UniProt Q9Y6M4)",99%
"Wee1-like protein kinase (WEE1, Homo sapiens, UniProt P30291)",92.1%
"MAP kinase-activated protein kinase 2 (MAPKAPK2, Homo sapiens, UniProt P49137)",99%
"Serine/threonine-protein kinase TAO2 (TAOK2, Homo sapiens, UniProt Q9UL54)",96.1%
"Casein kinase I isoform gamma-2 (CSNK1G2, Homo sapiens, UniProt P78368)",104%
"Tyrosine-protein kinase FRK (FRK, Homo sapiens, UniProt P42685)",95.8%
"Fibroblast growth factor receptor 1 (FGFR1, Homo sapiens, UniProt P11362)",99.5%
"Mitogen-activated protein kinase 3 (MAPK3, Homo sapiens, UniProt P27361)",98.5%
"Fibroblast growth factor receptor 3 (FGFR3, Homo sapiens, UniProt P22607)",99.8%
"Macrophage-stimulating protein receptor (MST1R, Homo sapiens, UniProt Q04912)",92.6%
"Mitogen-activated protein kinase kinase kinase 5 (MAP3K5, Homo sapiens, UniProt Q99683)",103%
"Rhodopsin kinase GRK7 (GRK7, Homo sapiens, UniProt Q8WTQ7)",121%
"Serine/threonine-protein kinase A-Raf (ARAF, Homo sapiens, UniProt P10398)",104%
"Serine/threonine-protein kinase Nek6 (NEK6, Homo sapiens, UniProt Q9HC98)",109%
"Tyrosine-protein kinase Mer (MERTK, Homo sapiens, UniProt Q12866)",106%

# Set 6
# SMILES: CC(C)S(=O)(=O)c1ccc2nccc(Nc3ccc4sc(C5CCCC5)nc4c3)c2c1.Cl
# Effect on: kinase activity
# Action: inhibitor
# Tested at: 1 µM
target,remaining activity [%]
"Casein kinase II subunit alpha' (CSNK2A2, Homo sapiens, UniProt P19784)",95
"Calcium/calmodulin-dependent protein kinase type II subunit delta (CAMK2D, Homo sapiens, UniProt Q13557)",85
"Tau-tubulin kinase 1 (TTBK1, Homo sapiens, UniProt Q5TCY1)",101
"Mitogen-activated protein kinase kinase kinase 8 (MAP3K8, Homo sapiens, UniProt P41279)",103

# Set 7
# SMILES: N=C(N)NC(=O)c1cnn(-c2cccc3ncccc23)c1C1CC1
# Effect on: β-arrestin recruitment
# Action: agonist
# Method: PRESTO-Tango
# Tested at: 10 µM
# Relative to: untreated
target,fold over basal
"Type-1 angiotensin II receptor (AGTR1, Homo sapiens, UniProt P30556)",0.79
"G-protein coupled receptor 3 (GPR3, Homo sapiens, UniProt P46089)",1.08
"G-protein coupled receptor 35 (GPR35, Homo sapiens, UniProt Q9HC97)",1.31
"Adhesion G protein-coupled receptor F4 (ADGRF4, Homo sapiens, UniProt Q8IZF3)",1.08
"Type-2 angiotensin II receptor (AGTR2, Homo sapiens, UniProt P50052)",1.59

# Excerpt of the above (set 5):
target,remaining activity
"MAP kinase-activated protein kinase 2 (MAPKAPK2, Homo sapiens, UniProt P49137)",99%
"Serine/threonine-protein kinase TAO2 (TAOK2, Homo sapiens, UniProt Q9UL54)",96.1%
"Casein kinase I isoform gamma-2 (CSNK1G2, Homo sapiens, UniProt P78368)",104%
"Tyrosine-protein kinase FRK (FRK, Homo sapiens, UniProt P42685)",95.8%
"Fibroblast growth factor receptor 1 (FGFR1, Homo sapiens, UniProt P11362)",99.5%
